Results collected from several papers.
Compare with care: the assays were run in different laboratories. “And” joins repeats or separate records; there may be more than shown. ± gives the spread as reported.

Compound	cell line	assay	setting	how to read	quantity	result
COc1ccc(NC(=O)c2ccc3[nH]c(-c4ccc(N(C)C)cc4)nc3c2)cn1	HCT-116	proximity ligation, item: endogenous ERK-MYD88 complex	unit not given	reference: DMSO	ERK-MYD88 interaction	0.469
O=C(C[Se]C(=O)c1ccc2ccccc2c1)Nc1cccc(C(F)(F)F)c1	NCI60 colon subpanel	NCI60 five-dose screen			CC50	20 µM
[2H]C([2H])([18F])[C@]([2H])(N)C(=O)O	U-87 MG		concentration not given, added: L-alanine 5 mM		inhibition of cellular uptake	88%
CC(C)CC(O)(CC(C)C)c1cn(C(=O)N2CCCC2)nn1	mouse T-cells	protein abundance, unenriched SILAC proteomics, item: S100A6	1 nM, 6 h, protein median	reference: DMSO	SILAC ratio	1.03
Cc1cc(Oc2nc(N3CC[C@@H](c4ccncc4)C3)ncc2F)[nH]n1	EFO-21	cell proliferation			IC50	75.9 µM
CC(C)C[C@H](NC(=O)[C@H](CC(=O)O)NC(=O)CNC(=O)[C@@H](N)CCCNC(=N)N)C(=O)N[C@@H](C)C(=O)N[C@H](C(=O)N[C@@H](CC(C)C)C(=O)N[C@@H](CCCNC(=N)N)C(=O)N[C@@H](CCC(N)=O)C(=O)N[C@@H](CC(C)C)C(=O)N[C@@H](C)C(=O)N[C@@H](CCC(N)=O)C(=O)N[C@@H](CCC(=O)O)C(=O)N[C@@H](CC(=O)O)C(=O)NCC(=O)N[C@H](C(=O)N[C@H](C(=O)NCC(=O)N[C@H](C(=O)N[C@@H](CCCNC(=N)N)C(=O)NCCOCCOCCOCCOCCOCCOCCOCCOCCOCCOCCOCCOCCC(=O)N[C@@H](CS)C(N)=O)C(C)C)C(C)C)C(C)C)[C@@H](C)O	HCC827	phage binding		reference: targeting over control phage	selectivity ratio	180 ± 66
COc1ccccc1-c1ccncc1C(=O)Nc1nnc(OCc2ccc(Cl)cc2)s1	DLD-1 BRCA2-/-		8 µM, mean of 3 replicates	reference: untreated	colony survival	8.72%
Cc1cc(=O)oc2cc(OCCCCCC[Se]C#N)ccc12	WiDr, multidrug-resistant	sulforhodamine B			GI50	3.1 ± 0.9 µM
CC(C)(C)C(=O)OCOP(=O)(OCOC(=O)C(C)(C)C)C1CCCN(O)C1=O (centres unmarked)	OVCAR-4				log LC50	> -4 log M
O=C(O)c1ccc(-c2nc(-c3ccccc3Cl)c3sccn23)cc1	K562	megakaryocyte differentiation, flow cytometry	0.01 mM, 72 h		CD61-positive cells	0.5% and 8.9%
Cc1c(Cl)cccc1Nc1ccccc1C(=O)[Se]CC(=O)Nc1cccc(C(F)(F)F)c1	NCI60 colon subpanel	NCI60 five-dose screen			CC50	18.2 µM
CC(=O)NCSC[C@H](NC(=O)[C@@H]1CCCN1C(=O)[C@H](C)NC(=O)[C@@H](NC(=O)CNC(=O)[C@@H](NC(=O)[C@H](Cc1c[nH]c2ccccc12)NC(=O)[C@H](C)NC(=O)CNC(=O)[C@H](CO)NC(=O)[C@H](C)NC(=O)[C@@H]1CCCN1C(=O)[C@H](Cc1c[nH]c2ccccc12)NC(=O)[C@H](C)NC(=O)[C@H](C)NC(=O)[C@@H](N)Cc1ccc(O)cc1)[C@@H](C)O)[C@@H](C)O)C(=O)N[C@@H](CO)C(=O)N[C@@H](C)C(=O)NCC(=O)N[C@H](C(=O)NCCOCCOCCOCCOCCOCCOCCOCCOCCOCCOCCOCCOCCC(=O)N[C@@H](CS)C(N)=O)[C@@H](C)O	HCC2279 lung adenocarcinoma	cell binding, phage binding, item: output/input phage	10 min, 37 °C	reference: control phage	selectivity ratio	3.9 ± 1.8
O=C(C[Se]C(=O)c1ccco1)Nc1cccc(C(F)(F)F)c1	NCI60 colon subpanel	NCI60 five-dose screen			CC50	64.5 µM
CC(C)[C@H](NC(=O)[C@H](CCCNC(=N)N)NC(=O)[C@@H]1CCCN1C(=O)[C@@H](NC(=O)[C@H](C)NC(=O)[C@H](Cc1ccc(O)cc1)NC(=O)[C@H](CCC(N)=O)NC(=O)[C@H](CCCCN)NC(=O)[C@H](CCCNC(=N)N)NC(=O)[C@@H]1CCCN1C(=O)[C@H](CCC(=O)O)NC(=O)[C@@H](NC(=O)[C@H](C)N)[C@@H](C)O)[C@@H](C)O)C(=O)N[C@@H](Cc1ccccc1)C(=O)N[C@@H](Cc1c[nH]c2ccccc12)C(=O)N[C@H](C(=O)N[C@@H](CC(=O)O)C(=O)N[C@@H](C)C(=O)N1CCC[C@H]1C(=O)NCC(=O)NCCOCCOCCOCCOCCOCCOCCOCCOCCOCCOCCOCCOCCC(=O)N[C@@H](CS)C(N)=O)[C@@H](C)O	LNCaP prostate carcinoma	cell binding, phage binding, item: output/input phage	10 min, 37 °C	reference: control phage	selectivity ratio	1.9 ± 1.2
CC(C)C[C@H](NC(=O)[C@H](CCC(=O)O)NC(=O)[C@@H](N)Cc1ccccc1)C(=O)N[C@@H](CCC(=O)O)C(=O)N[C@@H](CCCNC(=N)N)C(=O)N[C@@H](CCCNC(=N)N)C(=O)N[C@@H](Cc1ccccc1)C(=O)N[C@@H](CCCCN)C(=O)N[C@@H](CCC(N)=O)C(=O)N[C@@H](CCC(N)=O)C(=O)O	HCT-116	CCK-8	1.25 µM	reference: vehicle	viability	96.9% and 101% and 107%
O=C(C[Se]C(=O)c1cc2ccccc2s1)Nc1cccc(C(F)(F)F)c1	NCI60 breast subpanel	NCI60 five-dose screen			CC50	8.11 µM
NC(=O)N/N=C/c1ccc(OCc2cccc(F)c2)cc1	IMR-32	item: GPX3	300 µg/mL, 24 h	higher = more activity	glutathione peroxidase activity (OD450)	0.082 a.u.

A few entries again:
Compound	cell line	assay	setting	how to read	quantity	result
Cc1c(Cl)cccc1Nc1ccccc1C(=O)[Se]CC(=O)Nc1cccc(C(F)(F)F)c1	NCI60 colon subpanel	NCI60 five-dose screen			CC50	18.2 µM
CC(=O)NCSC[C@H](NC(=O)[C@@H]1CCCN1C(=O)[C@H](C)NC(=O)[C@@H](NC(=O)CNC(=O)[C@@H](NC(=O)[C@H](Cc1c[nH]c2ccccc12)NC(=O)[C@H](C)NC(=O)CNC(=O)[C@H](CO)NC(=O)[C@H](C)NC(=O)[C@@H]1CCCN1C(=O)[C@H](Cc1c[nH]c2ccccc12)NC(=O)[C@H](C)NC(=O)[C@H](C)NC(=O)[C@@H](N)Cc1ccc(O)cc1)[C@@H](C)O)[C@@H](C)O)C(=O)N[C@@H](CO)C(=O)N[C@@H](C)C(=O)NCC(=O)N[C@H](C(=O)NCCOCCOCCOCCOCCOCCOCCOCCOCCOCCOCCOCCOCCC(=O)N[C@@H](CS)C(N)=O)[C@@H](C)O	HCC2279 lung adenocarcinoma	cell binding, phage binding, item: output/input phage	10 min, 37 °C	reference: control phage	selectivity ratio	3.9 ± 1.8
